Published values of several laboratories.
Each line is one published result; not all experiments were run side by side. ± marks the error that the study gave.

O=C(Nc1cccc(C(F)(F)F)c1)NC1CCN(Cc2ccccc2)CC1 — intrinsic clearance (CD-1 female mouse, liver microsomes; 0.8 µM): 90 mL/min/kg
COc1ccc(Cl)cc1C(=O)NCCc1ccc(S(=O)(=O)NC(=O)NC2CCCCC2)cc1 — thermodynamic solubility (shake-flask; soybean oil; 37 °C): ≤ 0.05 mg/g
CC(=O)Oc1ccc(/C=C\C(=O)Nc2ccc(S(=O)(=O)Nc3ncccn3)cc2)cc1OC(C)=O — log P (n-octanol/PBS; pH 7.4): > 0.5
Cc1cc(Nc2cc3ncccc3c(N[C@@H]3C[C@H]4CC[C@@H](C3)N4CCC#N)n2)n[nH]1 — Cmax (pregnant rat, maternal plasma; oral, 1000 mg/kg/day, gestation day 17): 161 ng/mL
Cn1cc(-c2cn3nccc3c(-c3cnn([C@]4(CC#N)C[C@@H](C#N)C4)c3)n2)cn1 — dose-normalized AUC(0-tau) (healthy human, plasma; 200 mg twice daily, day 1, multiple dose, fed, geometric mean): 8.2 ng·h/mL/mg
CC(C)(Oc1ccc(C(=O)c2ccc(Cl)cc2)cc1)C(=O)O — thermodynamic solubility (shake-flask; Captex 355; 37 °C): 1.97 ± 0.05 mg/g
COc1c(N2C[C@@H]3CCCN[C@@H]3C2)c(F)cc2c(=O)c(C(=O)O)cn(C3CC3)c12 — QTc change (healthy adults; oral, 400 mg, 2-9 h post dose; reference: placebo): ~10 ms
C=C(C)[C@@H]1CC=C(C=O)CC1 — maximal peptide depletion (cysteine peptide Ac-RFAACAA-COOH; DPRA RapidFire-MS/MS; 24 h, pH 7.5, with: 5.0 µM cysteine peptide): -109%
C[C@H](CS)C(=O)N1CCC[C@H]1C(=O)O — QTc change (male Hartley guinea pig, anaesthetized; intravenous infusion, 3 mg/kg, 10 min infusion; reference: baseline): 0 ± 0.9%
CCCOc1ccc([C@H]2CNC(=O)N2c2ccc3[nH]cnc3c2)cc1 — effective half-life (non-elderly adults, fasted, plasma; oral, 50 mg twice daily, day 11, 2 to 12 h postdose, oral solution, geometric mean): 2.62 h
CCC/C=C/C=O — IC50 (cysteine peptide Ac-RFAACAA-COOH; peptide depletion, DPRA RapidFire-MS/MS; 24 h, pH 7.5, room temperature, with: 5.0 µM cysteine peptide): 55.8 µM
Cc1nc2cccc(OCC(C)(C)C(=O)NC(C)C)c2c(N)c1C(=O)O — Cmax (female Sprague-Dawley rat, plasma; dietary, 30 mg/kg/day, day 90): 31.2 ng/mL
O=C(Nc1ccc([N+](=O)[O-])cc1Cl)c1cc(Cl)ccc1O — thermodynamic solubility (shake-flask; soybean oil; 37 °C): 1.38 ± 0.11 mg/g
CC(C)(C)NC(=O)[C@@H]1C[C@@H]2CCCC[C@@H]2CN1C[C@@H](O)[C@H](Cc1ccccc1)NC(=O)[C@H](CC(N)=O)NC(=O)c1ccc2ccccc2n1 — effective permeability (equilibrium dialysis; cellulose membrane, cell-free; pH 7.4, no Pluronic P85): 47 ± 11 ×10⁻⁶ cm/s
Cc1ncnc2c1c(Cl)cn2[C@@H]1O[C@H](CO)[C@@H](O)[C@H]1O — compound remaining (metabolic stability; mouse, liver microsomes; 15 min): 99%
N[C@@H](CC(=O)N1CCn2c(nnc2C(F)(F)F)C1)Cc1cc(F)c(F)cc1F — AUC(0-2 h) (healthy Korean subjects, plasma; oral, 100 mg single dose, ABCB1 C3435T CC): 471 ± 196 ng·h/mL
Cc1cc(Nc2ncc(Cl)c(Nc3ccccc3S(=O)(=O)C(C)C)n2)c(OC(C)C)cc1C1CCNCC1 — AUC(tau) at steady state (refers to: unbound drug; patients, plasma; oral, 750 or 450 mg/day, arithmetic mean): 0.307 µM·h
CCCCCCCCC[C@H](O)CC(=O)CCc1ccc(O)c(OC)c1 — recovery (rat, small intestine site 4 contents; oral, dose not given, 4 h, no β-glucuronidase treatment; reference: ingested amount): 3.51%
COc1cc2nccc(Oc3ccc(NC(=O)NC4CC4)c(Cl)c3)c2cc1C(N)=O — systemic exposure (healthy volunteers; oral, 5 mg single dose, with: ketoconazole 400 mg/day; reference: placebo): 15 to 19 % increase
CN(C)CCN1C(=O)c2ccccc2NC12C(=O)N(C)c1ccc(Br)cc12 (centres unmarked) — logD (shake flask; aqueous buffer; pH 7.4): 1.6

A few entries again:
Cn1cc(-c2cn3nccc3c(-c3cnn([C@]4(CC#N)C[C@@H](C#N)C4)c3)n2)cn1 — dose-normalized AUC(0-tau) (healthy human, plasma; 200 mg twice daily, day 1, multiple dose, fed, geometric mean): 8.2 ng·h/mL/mg
O=C(Nc1cccc(C(F)(F)F)c1)NC1CCN(Cc2ccccc2)CC1 — intrinsic clearance (CD-1 female mouse, liver microsomes; 0.8 µM): 90 mL/min/kg
